# Experimental data of several laboratories.
# Parts stem from different laboratories: compare values within a part only.

# Series 1 — technique: universal PBM; molecule type: double-stranded DNA, one strand shown; medium: in vitro; concentration: 600 nM; reading: higher = stronger binding
# Target: Sal-like protein 4, full length isoform A (SALL4, Homo sapiens, UniProt Q9UJQ4, residues 1-1053)
# Chain of UniProt Q9UJQ4 (whole entry, looked up): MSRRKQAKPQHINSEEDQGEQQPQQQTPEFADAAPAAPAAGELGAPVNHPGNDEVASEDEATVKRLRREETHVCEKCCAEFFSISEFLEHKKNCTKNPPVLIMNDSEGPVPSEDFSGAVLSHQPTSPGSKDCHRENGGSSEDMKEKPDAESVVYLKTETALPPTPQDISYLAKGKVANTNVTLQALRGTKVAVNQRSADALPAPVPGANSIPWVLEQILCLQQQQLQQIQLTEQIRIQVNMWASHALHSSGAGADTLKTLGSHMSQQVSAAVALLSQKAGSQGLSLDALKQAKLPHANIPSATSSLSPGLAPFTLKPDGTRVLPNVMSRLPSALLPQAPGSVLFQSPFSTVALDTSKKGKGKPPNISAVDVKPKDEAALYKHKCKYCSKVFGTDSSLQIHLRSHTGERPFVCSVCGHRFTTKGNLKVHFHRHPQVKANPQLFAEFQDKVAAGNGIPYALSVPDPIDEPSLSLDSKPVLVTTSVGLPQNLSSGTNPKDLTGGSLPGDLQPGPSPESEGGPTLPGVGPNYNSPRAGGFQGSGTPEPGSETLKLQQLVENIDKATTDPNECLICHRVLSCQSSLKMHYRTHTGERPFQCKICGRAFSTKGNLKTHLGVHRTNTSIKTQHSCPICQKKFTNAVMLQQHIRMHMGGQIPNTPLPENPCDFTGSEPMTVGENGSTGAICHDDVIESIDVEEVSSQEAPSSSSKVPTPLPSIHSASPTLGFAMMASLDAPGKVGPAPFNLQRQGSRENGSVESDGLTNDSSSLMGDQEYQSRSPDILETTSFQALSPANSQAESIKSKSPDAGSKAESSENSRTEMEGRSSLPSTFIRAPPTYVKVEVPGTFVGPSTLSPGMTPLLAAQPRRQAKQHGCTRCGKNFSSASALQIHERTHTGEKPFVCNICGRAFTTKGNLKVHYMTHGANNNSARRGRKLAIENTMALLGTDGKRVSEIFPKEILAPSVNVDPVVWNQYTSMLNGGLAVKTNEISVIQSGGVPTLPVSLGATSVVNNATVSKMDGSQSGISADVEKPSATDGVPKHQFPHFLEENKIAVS
# Setting: 8-mer, flanks averaged, mean of replicates
Strand,E-score
AGGCGGCG,-0.308
GCAATAGA,0.109
CAATTTAC,0.168
AATGAGGA,0.033
GAGGCAAC,-0.222
ATTGTTTC,0.238
AAAGTGTC,9e-05
GCCAATAC,-0.00307
CATCCGGC,-0.289
AGACTCGG,-0.31
AGTACTAG,0.0793
CGACAAAA,0.177
AACTCATT,0.0475
ACATTACG,0.188
CTGTTTTA,0.185
AAACGAGG,-0.183
CTTGCCAA,0.0321
CTAAAGAG,-0.0872

# Series 2 — technique: protein-binding microarray; molecule type: double-stranded DNA, one strand shown; medium: in vitro; concentration: 2200 nM top; setting: 60-bp whole probe; with: salmon DNA 0.4 mg/ml; relative to: random background probes; reading: higher = stronger binding; all sequences stand within: GCCTAGCAC … GTCTTGATTCGCTTGACGCTGCTG
# Target: Interferon regulatory factor 7, full length, phosphomimetic (IRF7, Homo sapiens, UniProt Q92985, residues 1-503, S471D/S472D/S475D/S476D/S477D/S483D/S484D/S487D)
# Residues (chain): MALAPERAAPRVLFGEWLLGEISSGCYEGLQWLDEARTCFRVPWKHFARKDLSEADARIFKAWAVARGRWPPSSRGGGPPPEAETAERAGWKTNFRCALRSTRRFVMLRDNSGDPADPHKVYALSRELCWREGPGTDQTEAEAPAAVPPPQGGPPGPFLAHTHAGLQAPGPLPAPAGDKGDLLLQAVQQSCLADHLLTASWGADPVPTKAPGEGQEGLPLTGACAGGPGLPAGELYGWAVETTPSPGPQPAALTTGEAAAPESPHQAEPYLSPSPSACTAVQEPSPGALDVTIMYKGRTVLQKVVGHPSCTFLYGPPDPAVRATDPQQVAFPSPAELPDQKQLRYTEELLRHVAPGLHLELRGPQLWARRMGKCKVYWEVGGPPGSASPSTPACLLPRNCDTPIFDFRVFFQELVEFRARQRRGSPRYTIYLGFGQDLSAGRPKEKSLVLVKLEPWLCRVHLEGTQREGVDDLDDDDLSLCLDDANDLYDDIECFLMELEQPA
Strand,fitted relative affinity
TTAGATCTCAGTCTCGCTTAGTGCTAG,0.485 z-score
GACGATATCAGTCTCGTGACGTGCTAG,0.342 z-score
TGTTCATTTTCAAAACTGTTGTGCTAG,1.5 z-score
GACGGACTGCTTATCCTGAAGTGCTAG,0.221 z-score
TCAGCTTTCCAATTCTCACTGTGCTAG,3.17 z-score
TTAAATTTCAGACTGGATTAGTGCTAG,-0.254 z-score
GACGCACTGGGGACTGGGGACGTGCTA,-0.258 z-score
TCAGCTCTAGGTTCTCTGAAGGTGCTA,-0.11 z-score
GACGGTTTCCTAATCCTGACGTGCTAG,2.22 z-score
TTAGATTTCATTATCGATTAGTGCTAG,1.09 z-score
TTAGGACTGGGTATCAGTTAGTGCTAG,-0.641 z-score
TCACTTTTTTTTTTTTTACTGTGCTAG,2.54 z-score
GACGGACTGCGACTGGGGACGTGCTAG,-0.834 z-score
TTTGAACTGAGTATCGATTAGTGCTAG,-0.0211 z-score
GACGGTTCGCTTTTCCTGACGTGCTAG,2.1 z-score
GCCGGTTTCCTTTTCCTGACGTGCTAG,6.72 z-score

# Series 3 — technique: protein binding microarray; molecule type: double-stranded DNA, one strand shown; medium: in vitro; concentration: not given; relative to: not given; reading: higher = stronger binding
# Target: Histone acetyltransferase KAT6A, winged helix 1, GST fusion (KAT6A, Homo sapiens, UniProt Q92794, residues 1-85)
# Setting: 8-mer, flanks averaged, mean of 2 arrays, mostly near background
# Target sequence (chain): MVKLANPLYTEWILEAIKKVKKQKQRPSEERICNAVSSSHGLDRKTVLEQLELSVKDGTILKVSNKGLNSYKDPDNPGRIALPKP
Strand,E-score
GACGTTCA,0.0355
AGAGGTGA,-0.136
ACTGGTTG,-0.0761
AAGCTCTG,-0.17
CCGGCGTC,0.36
CACTTCGC,-0.0999
TGTTAGAA,-0.23
ATCTCTTA,-0.135
TAATGACA,-0.238
ACCGTATC,0.243
CGATGCAA,-0.0208
CACCGGAA,0.102
CCTACTAA,-0.019
GGCTATGA,0.01
CAGCCGGA,0.0707
CATTAGGG,-0.0927
GCGTTACA,0.0786
AATCTGAG,-0.225
ATGGACAG,-0.107
CAACCGAG,-0.0426
GCACACGC,0.188

# Series 4 — technique: RNA Bind-n-Seq; molecule type: RNA; medium: in vitro; concentration: not given; relative to: input RNA pool; reading: higher = stronger binding
# Target: RING finger protein unkempt homolog, zinc fingers 1-6, GST-SBP tag (UNK, Homo sapiens, UniProt Q9C0B0, residues 30-357)
# Setting: RNA with constant flanks, human-mouse chimeric sites, ends assumed
# Construct (chain): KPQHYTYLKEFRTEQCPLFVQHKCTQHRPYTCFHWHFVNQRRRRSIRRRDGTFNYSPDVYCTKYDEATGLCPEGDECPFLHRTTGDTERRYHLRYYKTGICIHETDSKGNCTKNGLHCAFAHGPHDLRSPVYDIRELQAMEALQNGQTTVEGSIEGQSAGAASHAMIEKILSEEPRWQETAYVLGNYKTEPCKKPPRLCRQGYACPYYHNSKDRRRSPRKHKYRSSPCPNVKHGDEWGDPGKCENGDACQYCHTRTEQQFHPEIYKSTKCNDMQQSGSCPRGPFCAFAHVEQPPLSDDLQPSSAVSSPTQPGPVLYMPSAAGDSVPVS
Strand,bound/input enrichment
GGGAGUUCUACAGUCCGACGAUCCAGCGCCGAGGCCGCGGUUUCCCCCUGGGUGUGCUGAGCAGCAGCCAUGGGCAUCAAAUUUUUAGAAGUUAUCAAACCAUUCUGUGCAGUUCUACCAGAAAUUCAGAAGCCUGAAAGGAACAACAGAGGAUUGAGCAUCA,1.13 ratio
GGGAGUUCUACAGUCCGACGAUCAUUCCGAUUAUGGACACCGGUGAAAACCCAGAGGUUCCCUUCCCUCGGGACAUGAUCGACUUAGAGGCCAAUUUUGAGAAGAUUGAAAAUGAACUGAAGGAAAUCAACACAAACCAGGAACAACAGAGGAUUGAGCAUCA,0.11 ratio
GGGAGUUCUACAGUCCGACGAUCCUCAGAGAUGUGGCAUAUCAGUAUGUGAAAAAGGGGUCUCGUAUAUUUGUGGAAGGGAAAAUAGACUAUGGCGAGUACAUGGAUAAAAACAAUGUGAGGCGGCAAGCAACAACAAUCAUACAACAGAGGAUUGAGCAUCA,0.525 ratio
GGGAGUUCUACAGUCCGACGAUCCGGAGCCCUCCUCUCCCACAGGCCCAAGAUGUGACCCACCAGUGCCUUUUGUCUUCCUGUCAGCUCUGUCAAUCACGGCCCUGCCUUCACGCCCACACCAAGUGCCCAAAGUGGGGAGGGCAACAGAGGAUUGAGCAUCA,0.282 ratio
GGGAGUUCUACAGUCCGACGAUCCAGACUGUGUCAUACUUUUUAGACAUUCACAUCAGACUUACAGAGCACCUGGCCACAUUCUAGGUUUGUGUUAUUUCUCAGCUAUGGAUAUGAUCAAAGAGUGAAAAUGCUUAACUAAUGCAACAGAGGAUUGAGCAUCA,0.51 ratio
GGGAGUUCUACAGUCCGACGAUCCUCAUGGCUGCAGAAACAGGAAGUGGAAAAACUGGUGCAUUUAGUAUUCCAGUUAUCCAGAUAGUGUAUGAAACUCUGAAAGACCAACAGGAAGGAAAGAAAGGGAAAACAACAAUUAAACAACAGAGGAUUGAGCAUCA,1.15 ratio
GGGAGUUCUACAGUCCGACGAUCUGACAAGCACGAGCAUCAGCCAUGCCUUUCCUUGACAUCCAGAAAAGGCUGGGCAUCAGCCUGGACCGGCACUUUAUGUUCCUAAGCGCAGAACAGCCCUAUAAGAACGCCGCUCGGUGCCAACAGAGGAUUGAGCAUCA,0.0628 ratio

# Series 5 — technique: protein-binding microarray; molecule type: double-stranded DNA, one strand shown; medium: in vitro; concentration: 0.8 µM; setting: whole 60-bp probe, no competitor; reading: higher = stronger binding
# Target: Centromere-binding protein 1, full length, N-terminal tag (CBF1, Saccharomyces cerevisiae, UniProt P17106, residues 1-351)
# Chain of UniProt P17106 (whole entry, looked up): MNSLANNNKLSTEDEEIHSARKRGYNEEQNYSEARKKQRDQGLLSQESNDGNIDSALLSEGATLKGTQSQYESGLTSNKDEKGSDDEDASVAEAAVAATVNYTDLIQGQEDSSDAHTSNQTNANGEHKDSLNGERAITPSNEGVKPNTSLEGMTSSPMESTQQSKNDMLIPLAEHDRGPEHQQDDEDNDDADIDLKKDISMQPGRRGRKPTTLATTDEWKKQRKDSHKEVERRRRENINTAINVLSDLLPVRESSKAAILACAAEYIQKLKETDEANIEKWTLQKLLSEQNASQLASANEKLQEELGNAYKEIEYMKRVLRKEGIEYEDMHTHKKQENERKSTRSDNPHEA
Strand,fluorescence intensity
GAACCTACAGACCACAACGTGTCACTGCTAAGCTAGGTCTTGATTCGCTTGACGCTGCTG,586 a.u.
CTACACCCCCCCACACACGTTCCGCCCACTTTTTTCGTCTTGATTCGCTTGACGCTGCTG,510 a.u.
CTAGGGAACACCTTACGCGTGAGCTGTGCCCACTTCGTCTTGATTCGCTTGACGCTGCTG,479 a.u.
CCTAACTACTATAATCACGGAAGATAGCTTCGTACAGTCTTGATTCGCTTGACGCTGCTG,535 a.u.
GAACTTACTCTCGCGCACGATCTTGAATTGTGGTAGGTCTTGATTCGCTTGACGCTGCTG,534 a.u.
CCTAACTACTATACGCACACGTAATAGCTTCGTACAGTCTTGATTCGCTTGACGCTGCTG,499 a.u.
GAAATGATGCTCCACGTGGTAATATGACTATGCTAGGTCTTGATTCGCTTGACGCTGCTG,4700 a.u.
CTATTACTTACTGATCTCATGATCTCAGTGCAATTCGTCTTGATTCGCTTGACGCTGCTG,837 a.u.
CTATCATTGGTTGGTGGTGCGATTTAATGCGTATTCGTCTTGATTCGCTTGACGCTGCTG,519 a.u.
CTAACCCTAACAATACACATGATGCAACTGGAATTCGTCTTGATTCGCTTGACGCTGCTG,725 a.u.
GAAATTATGATATATATCATGATGATTATTTTCTAGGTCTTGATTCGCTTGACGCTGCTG,530 a.u.
GAAGTTAGTAGTCTACACGTTACTAATTACGTGTAGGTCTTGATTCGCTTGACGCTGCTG,633 a.u.
CTAAGAGTTTCTCATCACCATCCCCATATCATTTTCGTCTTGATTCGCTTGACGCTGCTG,545 a.u.
CTATATTCATCATATCGTGAGGTATGTAGGCATTTCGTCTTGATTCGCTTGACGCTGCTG,532 a.u.
TGTACGAAGCTATCCTGCGTGGCTATAGTAGTTAGGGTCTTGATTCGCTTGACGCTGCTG,517 a.u.
GAAGCAAACGAGAAAAACGTGCCAACCTGGCATTAGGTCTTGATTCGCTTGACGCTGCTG,653 a.u.
